# Measured values gathered from unrelated publications.
# ± marks the error that the study gave.
# Organism: Plasmodium falciparum
Structure (SMILES),effect on,method,strain,time,setting,IC50
COc1cc(C)ccc1NC(=O)C1NCCc2ccccc21 (centres unmarked),parasite growth,SYBR Green,3D7,96 h,blood stage,8800 nM
CCC1=CC(c2ccc[nH]2)=NC1=CNC1CCCCCCC1,parasite growth,SYBR Green I fluorescence,"D6, chloroquine-sensitive",,,> 250 nM
CCOC1C(C)C2C(C=CC3C(C)C=CC=CC(C)OC(=O)C(C)C(=O)C(Cl)(Cl)C(=O)C32)CC1(C)O (centres unmarked),parasite growth,ELISA,3D7,,blood stage,> 11000 nM
N#Cc1c(-c2ccco2)[n+]([O-])c2ccc(C(F)(F)F)cc2[n+]1[O-],parasite growth,[3H]hypoxanthine incorporation,3D7 chloroquine-sensitive,,,530 ± 250 nM
COC1=CC(c2ccc[nH]2)=NC1=CNC1CCCCCCC1,parasite growth,SYBR Green I fluorescence,"D6, chloroquine-sensitive",,,4.8 nM
CCNCC#CCNc1ccnc2cc(Cl)ccc12,parasite growth,SYBR Green I,3D7,,mean of experiments,34 ± 4 nM
CCOc1cccc(C(=O)Nc2ccc(-c3nc4ccccc4[nH]3)cc2)c1,parasite growth,,NF54,72 h,blood stage,1760 nM
O=C(/C=C/c1ccc(Cl)c(Cl)c1)N1CCC(CCN2CCC(c3c[nH]c4cnccc34)CC2)CC1,parasite growth,flow cytometry,3D7,72 h,,23.6 ± 7.97 nM
CC(C)(C)OC(=O)CNC(=O)[C@H](CCC(=O)N(O)c1ccc(Br)cc1)NC(=O)CC[C@H](N)C(=O)OC(C)(C)C,blood-stage growth,Giemsa-stained smears,3D7,48 h,synchronous culture,35000 nM
CNC(=O)c1ccc(-c2cnc3cnc(C(=O)N(C)c4ccc(Cl)cc4)cn23)cc1,parasite growth,,3D7,,,108 ± 61 nM
COc1cccc2c(-c3ccc(O)c4c3CCNC4)ccc(O)c12,parasite growth,SYBR Green,NF54,96 h,blood stage,576 nM
COC1=CC(c2ccc[nH]2)=NC1=CNC12CC3CC(CC(C3)C1)C2,parasite growth,SYBR Green I fluorescence,"D6, chloroquine-sensitive",,,3.1 nM
COc1cccc2c(-c3ccc(O)c4c3C[C@@H](C)N[C@@H]4C)c(C)cc(O)c12,parasite growth,SYBR Green,NF54,96 h,blood stage,42 nM
COc1ccc2c(c1)[n+]([O-])c(C#N)c(-c1ccco1)[n+]2[O-],parasite growth,[3H]hypoxanthine incorporation,3D7 chloroquine-sensitive,,,630 ± 140 nM
CC1C=CC=CC(C)C2C=CC3CC(C)(O)C(Br)C(C)C3C2C(=O)C(Cl)(Cl)C(=O)C(C)C(=O)O1 (centres unmarked),parasite growth,ELISA,3D7,,blood stage,25 nM
C[C@@H](C[C@@H](O)[C@H](O)C(C)(C)O)[C@@H]1CC[C@]2(C)C3=CC[C@H]4C(C)(C)[C@@H](O)CC[C@]4(C)[C@H]3CC[C@@]12C,,[3H]hypoxanthine incorporation,"D6, chloroquine-sensitive",,,36800 ± 2000 nM
S=C(Nc1ccccc1)c1cccc(C(=S)Nc2ccccc2)n1,parasite growth,SYBR Green,3D7,96 h,blood stage,142 nM
Cc1cc(N2CCC(C#N)(C3(C)CC3)C2=O)cc(C(=O)NCc2cc(F)cc(-c3cnn(C)c3)c2)n1 (racemic),parasite growth,[3H]hypoxanthine incorporation,K1,72 h,,20 nM
COc1cc(O)c(-c2cc(-c3cc(-c4c(O)cc(OC)c5c4C[C@@H](C)N[C@@H]5C)c4cc(C)cc(OC)c4c3O)c(O)c3c(OC)cc(C)cc23)c2c1[C@@H](C)N[C@H](C)C2,parasite growth,SYBR Green,NF54,96 h,blood stage,88 nM
Clc1ccc2c(NCCCN3CCN(c4ccnc(N5CCCC5)n4)CC3)ccnc2c1,parasite growth,,D6,72 h,blood stage,15 nM
COC(=O)[C@@H]1Cc2c([nH]c3ccccc23)[C@H](c2cccnc2)N1,parasite growth,,3D7,48 h,blood stage,4.82 µg/mL
COC1=CC(c2ccc[nH]2)=NC1=CNC1CCC1,parasite growth,SYBR Green I fluorescence,"D6, chloroquine-sensitive",,,591 nM
CCCCCC1CC2CCCC3CC(C)N=C(N1)N32 (centres unmarked),parasite growth,plasmodial LDH,D6 chloroquine-sensitive,,,880 nM
COc1cc(O)c(-c2ccc(OC)c3c(O)cc(C)c(-c4cc(-c5c(O)cc(OC)c6c5C[C@@H](C)N[C@@H]6C)c5cc(C)cc(OC)c5c4O)c23)c2c1[C@@H](C)N(C)[C@H](C)C2,parasite growth,,NF54,,blood stage,66 nM
CCCCN1C(=O)c2ccc3c4c(ccc(c24)C1=O)C(=O)N(c1c2ccc(Cl)cc2nc2ccc(OC)cc12)C3=O,parasite growth,SYBR Green,3D7,72 h,blood stage,3780 nM
CCCCCCCCCCCCCCCCC1CC(=O)NCCCN(C)CCCCN(C)CCCN1C (centres unmarked),,parasite LDH,D6 chloroquine-sensitive,72 h,,0.14 µg/mL
N[C@@H](CCC(=O)N[C@@H](CCC(=O)N(O)c1ccc(Br)cc1)C(=O)NCC(=O)OC1CCCC1)C(=O)OC1CCCC1,blood-stage growth,Giemsa-stained smears,3D7,48 h,asynchronous culture,30000 nM
CC1C=CC=CC(C)C2C=CC3CC(C)(Cl)C(O)C(C)C3C2C(=O)C(Cl)(Cl)C(=O)C(C)C(=O)O1 (centres unmarked),parasite growth,ELISA,3D7,,blood stage,102 nM
COc1cc2nc(N3CCCN(C)CC3)nc(NC(C)C)c2cc1OC,parasite growth,SYBR Green I,3D7,3 days,,322 nM
C#CCOc1cc(C(=O)C2=C(C)C(=O)c3ccccc3C2=O)ccc1C(F)(F)F,parasite growth,SYBR Green,Dd2,72 h,synchronized ring stage,> 5000 nM
COc1cccc2c1CCCN2C(=O)C1CCN(c2nnnn2-c2ccccc2)CC1,parasite growth,SYBR Green,3D7,72 h,blood stage,> 10000 nM
CC[C@@H](C)[C@@H]1NC(=O)[C@@H](Cc2ccccc2)NC(=O)[C@@H]2CCCN2C(=O)[C@H]([C@H](C)CC)NC(=O)[C@@H](Cc2ccccc2)NC(=O)[C@@H]2CCCN2C1=O,,,3D7,,,2000 nM
COC1=CC(c2ccc[nH]2)=NC1=CNC1CCCCCC1,parasite growth,SYBR Green I fluorescence,"D6, chloroquine-sensitive",,,23 nM
c1ccc(Cn2c(N3CCNCC3)nc3cccnc32)cc1,parasite growth,,NF54,,blood stage,> 1000 nM
COc1cc2c(NC3CCN(C)CC3)nc(N3CCCN(C)CC3)nc2cc1OCc1ccccc1,parasite growth,SYBR Green I,3D7,3 days,,42.7 nM
O=C(C1CCN(c2nnnn2-c2ccc(N3CCCC3)cc2)CC1)N1CCCc2ccccc21,parasite growth,,3D7,72 h,blood stage,150 nM
CC(=NNC(=S)NN=C(C(=NO)c1ccccc1)c1ccccc1)c1ccccc1,parasite growth,SYBR Green,3D7,72 h,blood stage,3070 nM
Clc1ccc(C2=CC(c3ccc[nH]3)=NC2=CNC2CCCC2)cc1,parasite growth,SYBR Green I fluorescence,"D6, chloroquine-sensitive",,,1220 nM
O=C(C1CCN(c2nnnn2-c2cccc(Cl)c2)CC1)N1CCCc2ccccc21,parasite growth,SYBR Green,3D7,72 h,blood stage,3400 nM
CNC(=O)c1ccc(-c2cnn3ccc(C(=O)N(c4ccc(C#N)cn4)C(C)(C)C)cc23)cc1,parasite growth,,3D7,,,126 ± 115 nM
CCCCCCCCCC1CC2CCC3CC(CCCCCCCCC)NC(=N1)N23 (centres unmarked),parasite growth,plasmodial LDH,W2 chloroquine-resistant,,,1430 nM
COC1=CC(c2ccc[nH]2)=NC1=Cc1[nH]c(Cc2ccc(Cl)cc2)cc1Cc1ccc(Cl)cc1,parasite growth,SYBR Green I fluorescence,"D6, chloroquine-sensitive",,,6.1 nM
COc1cc(O)c(-c2cc(-c3cc(-c4c(O)cc5c(c4OC)[C@H](C)N[C@H](C)C5)c4cc(C)cc(OC)c4c3O)c(O)c3c(OC)cc(C)cc23)c2c1[C@H](C)N[C@H](C)C2,parasite growth,SYBR Green,NF54,96 h,blood stage,63 nM
CNC(=O)CNc1cnc2ccc(-c3ccc(OC)c(OC)c3)cc2n1,parasite growth,SYBR Green,,,blood stage,~71 nM
COc1ccc2c(c1)C1CC(C)(N2)c2c(C)nc3ccc(OC)cc3c21 (centres unmarked),asexual stage growth,,INDO,12 h,trophozoite stage,38100 nM
CCCCOC1C(C)C2C(C=CC3C(C)C=CC=CC(C)OC(=O)C(C)C(=O)C(Cl)(Cl)C(=O)C32)CC1(C)O (centres unmarked),parasite growth,ELISA,3D7,,blood stage,> 11000 nM
O=C1c2ccc3c4c(ccc(c24)C(=O)N1CCCn1ccnc1)C(=O)N(c1c2ccccc2nc2ccccc12)C3=O,parasite growth,SYBR Green,3D7,72 h,blood stage,780 nM
N#Cc1c(-c2ccco2)[n+]([O-])c2ccc(F)cc2[n+]1[O-],parasite growth,[3H]hypoxanthine incorporation,3D7 chloroquine-sensitive,,,770 ± 220 nM
COC1=CC(c2ccc[nH]2)=NC1=CNC1CCCC1,parasite growth,SYBR Green I fluorescence,"D6, chloroquine-sensitive",,,68 nM
COC(=O)[C@@H]1Cc2c([nH]c3ccccc23)[C@@H](c2cccs2)N1,parasite growth,,3D7,48 h,blood stage,4.5 µg/mL
c1ccc(-c2ccc(CNc3ncnc4cc(OCC5CCN(CCNc6ccnc7ccccc67)CC5)ccc34)cc2)cc1,parasite growth,,NF54,,blood stage,513 nM
O=C(C1CCN(c2nnnn2-c2ccccc2)CC1)N1CCCc2ccccc21,parasite growth,,,72 h,gametocyte,2000 nM
N[C@@H](CNC(=O)N[C@@H](CCC(=O)N(O)c1ccc(Br)cc1)C(=O)NCC(=O)O)C(=O)O,blood-stage growth,Giemsa-stained smears,3D7,48 h,,~90000 nM

# A few entries again:
Structure (SMILES),effect on,method,strain,time,setting,IC50
CC1C=CC=CC(C)C2C=CC3CC(C)(O)C(Br)C(C)C3C2C(=O)C(Cl)(Cl)C(=O)C(C)C(=O)O1 (centres unmarked),parasite growth,ELISA,3D7,,blood stage,25 nM
C#CCOc1cc(C(=O)C2=C(C)C(=O)c3ccccc3C2=O)ccc1C(F)(F)F,parasite growth,SYBR Green,Dd2,72 h,synchronized ring stage,> 5000 nM
N#Cc1c(-c2ccco2)[n+]([O-])c2ccc(F)cc2[n+]1[O-],parasite growth,[3H]hypoxanthine incorporation,3D7 chloroquine-sensitive,,,770 ± 220 nM
CCOC1C(C)C2C(C=CC3C(C)C=CC=CC(C)OC(=O)C(C)C(=O)C(Cl)(Cl)C(=O)C32)CC1(C)O (centres unmarked),parasite growth,ELISA,3D7,,blood stage,> 11000 nM
Cc1cc(N2CCC(C#N)(C3(C)CC3)C2=O)cc(C(=O)NCc2cc(F)cc(-c3cnn(C)c3)c2)n1 (racemic),parasite growth,[3H]hypoxanthine incorporation,K1,72 h,,20 nM
O=C(C1CCN(c2nnnn2-c2ccccc2)CC1)N1CCCc2ccccc21,parasite growth,,,72 h,gametocyte,2000 nM
COc1cccc2c1CCCN2C(=O)C1CCN(c2nnnn2-c2ccccc2)CC1,parasite growth,SYBR Green,3D7,72 h,blood stage,> 10000 nM
CCOc1cccc(C(=O)Nc2ccc(-c3nc4ccccc4[nH]3)cc2)c1,parasite growth,,NF54,72 h,blood stage,1760 nM
O=C(/C=C/c1ccc(Cl)c(Cl)c1)N1CCC(CCN2CCC(c3c[nH]c4cnccc34)CC2)CC1,parasite growth,flow cytometry,3D7,72 h,,23.6 ± 7.97 nM
